Experimental data pooled from the literature.
Compare with care: the assays were run in different laboratories. Values joined by “and” are separate records of one study, mostly repeats; a detail may differ. ± gives the spread as reported.
UCHL1: Ubiquitin carboxyl-terminal hydrolase isozyme L1 (UCHL1, Homo sapiens, UniProt P09936)
Voltage-dependent P/Q-type calcium channel subunit alpha-1A: Voltage-dependent P/Q-type calcium channel subunit alpha-1A (Homo sapiens, UniProt O00555)
BEST1: BEST1 (Homo sapiens, UniProt O76090)

N#Cc1ccc(S(=O)(=O)n2nc(SCc3ccc(Cl)cc3)nc2N)cc1  probe labeling increase (LYPLAL1 (Homo sapiens, UniProt Q5VWZ2); enzyme activity, activator, gel-based ABPP; purified protein; concentration not given, with: FP-rhodamine; reference: DMSO): 2.1 fold
OC[C@H]1OC(O)[C@H](O)[C@@H](O)[C@@H]1O (stereo partly drawn)  kcat (Hexokinase-3 (HK3, Homo sapiens, UniProt P52790, E254A/R267A); substrate inhibition; mutant E254A/R267A, complete substrate inhibition model, with: ATP 20 mM): 54 ± 3 s⁻¹
COc1cc(-c2cncc3c2CN(C)Cc2cc(N4CCNCC4)ccc2-3)cc(OC)c1OC  remaining activity (PLK4 (Homo sapiens, UniProt O00444); kinase activity; 1 µM, human enzyme, with: ATP 10 µM; reference: DMSO control): 92%
O=C(CCl)Nc1cc(C2CCCC2)nn1-c1ccccc1  labelling (UCHL1; covalent, intact protein LC-MS; 12.5 µM): 19.3%
CC[C@H](C)C(=O)O[C@H]1C[C@H](O)C=C2C=C[C@H](C)[C@H](CC[C@@H](O)C[C@@H](O)CC(=O)O)[C@H]21  inhibition (Voltage-dependent P/Q-type calcium channel subunit alpha-1A; ion current, antagonist; HEK293; 30 µM): -4%
C[C@H]1O[C@H](O[C@H]2[C@H](O)[C@@H](O)[C@@H](O[C@H]3[C@H](O)[C@@H](O)C(O)O[C@@H]3CO)O[C@@H]2CO)[C@H](O)[C@@H](O)[C@@H]1N[C@H]1C=C(CO)[C@@H](O)[C@H](O)[C@H]1O (stereo partly drawn)  abnormal band quantity (α-amylase isoenzymes; native PAGE densitometry; 1 mg/mL; reference: untreated enzyme (band absent)): 9.94 a.u.
CC(C)=CCC/C(C)=C/C=C/C(C)=C/C=C/C(C)=C/C=C/C=C(C)/C=C/C=C(C)/C=C/C=C(\C)CCC=C(C)C  Stern-Volmer quenching constant (Beta-lactoglobulin (LGB, Bos taurus, UniProt P02754); fluorescence quenching; 303 K): 5400 ± 1580 L/mol
O=C(O)c1ccc(Nc2ncc3c(n2)-c2ccc(Cl)cc2C(c2c(F)cccc2F)=NC3)cc1  remaining activity (MSK1(h); kinase activity; 1 µM): 93%
O=C(NC1CCC1)c1ccc2nc(-c3cccc(NS(=O)(=O)NCCN4CCCCC4)c3)cn2c1  remaining activity (CDKL5 (Homo sapiens, UniProt O76039); enzyme activity; 10 µM): 100%
Cc1cc(Oc2ncccc2CN2CCN(c3ccccc3[N+](=O)[O-])CC2)ccc1-c1c(C)c(=O)[nH]c(=O)n1C  selectivity ratio (ADRA2C (Homo sapiens, UniProt P18825); binding, radioligand binding; with: [3H]rauwolscine; reference: Ki alpha2A over Ki alpha2C): 6
O=C(O)c1ccoc1S(=O)(=O)NCc1cc(-c2ccccc2)no1  remaining activity (malate dehydrogenase; enzyme activity, inhibitor; 200 µM, pH 7.0, 1% DMSO, aggregation counter-screen): 104%
[2H]c1cc(C)c(NC(=O)c2cnc(Nc3cc(N4CCCCC4)nc(C)n3)s2)c(Cl)c1  inhibition (PDGFRA (Homo sapiens, UniProt P16234, V561D); 0.01 µM): 30 to 90%
Cc1ccc(OS(=O)(=O)c2ccc(C=O)cc2)cc1  labelling (UCHL1; covalent, intact protein LC-MS; 12.5 µM): 5.17%
O=C(O)c1cccc(C(N(Cc2ccccc2)C(=O)c2cccs2)P(=O)(O)O)n1 (stereo not drawn)  dissociative half-life (Beta-lactamase L1 (Stenotrophomonas maltophilia, UniProt P52700); binding, inhibitor, nitrocefin progress curves): 17 ± 2.8 min
O=c1nc(SCc2cc(F)cc(C(F)(F)F)c2)nc(SCc2ccc3nc(Cl)ccc3c2)[nH]1  decatenated DNA (TOP2B (Homo sapiens, UniProt Q02880); decatenation; 125 µM, replicate 1): 0.23%
CCS(=O)(=O)N1CC(CC#N)(n2cc(-c3ncnc4[nH]ccc34)cn2)C1  change in binding constant (ORM1 (Homo sapiens, UniProt P02763); with: Ni2+): -37%
COc1cc2c(c(OC)c1OC)-c1ccc(OC)c(=O)cc1[C@@H](NC(C)=O)CC2  IC30 (Voltage-dependent P/Q-type calcium channel subunit alpha-1A; ion current, antagonist, automated patch clamp): > 30 µM
Oc1ccc(/C=C/c2cc(O)cc(O)c2)cc1  -TΔS (O-methyltransferase (Sorghum bicolor, UniProt A0A1B6PFV1); ITC; with: MTA+): 5.76 kcal/mol
Nc1ncnc2c1ncn2[C@@H]1O[C@H](COP(=O)(O)CP(=O)(O)OP(=O)(O)O)[C@@H](O)[C@H]1O  calcium influx (P2X purinoceptor 1 (P2RX1, Homo sapiens, UniProt P51575, R292A); calcium influx; 31.6 nM; reference: ionomycin response): 0.178% and 0.496% and 1.17%
O=S(=O)(Nc1cc(-c2ncn[nH]2)ccc1F)c1cc(Cl)cc(Cl)c1O  remaining activity (malate dehydrogenase; enzyme activity, inhibitor; 40 µM, pH 7.0, 1% DMSO, aggregation counter-screen): 101%
O=C(CCn1c(=O)[nH]c(=O)c2ccccc21)NCCNC(=O)c1cnc2ccccc2c1  ligand efficiency (TNKS (Homo sapiens, UniProt O95271); enzyme activity, inhibitor): 0.48
C=CC(=O)N1CCC[C@@H](n2nc(-c3ccc(Oc4ccccc4)cc3)c3c(N)ncnc32)C1  remaining activity (TNK2 (Homo sapiens, UniProt Q07912); 1 µM): 86.9%
CC[C@@H](C)[C@@H](NC(=O)[C@@H](Cc1ccc(O)cc1)NC(=O)[C@H]1CCCN1C(=O)[C@@H](CCCNC(=N)N)NC(=O)[C@H](N)Cc1c[nH]cn1)C(=O)N[C@H](C)C(=O)N[C@H](Cc1c[nH]cn1)C(=O)N[C@H](CCCNC(=N)N)C(=O)N[C@@H](C(=O)N[C@H](Cc1ccc(O)cc1)C(=O)N[C@H](CO)C(=O)N[C@H](Cc1ccccc1)C(N)=O)C(C)C  surface TFRC expression (Transferrin receptor protein 1 (Tfrc, Mus musculus, UniProt Q62351); flow cytometry; RAW264.7; 24 h, pH 6, replicate 3, unit not given; reference: 0 h): 0.927
O=C(CCc1nncn1-c1ccccc1)NCc1nocc1C(=O)O  remaining activity (malate dehydrogenase; enzyme activity, inhibitor; 200 µM, pH 7.0, 1% DMSO, aggregation counter-screen): 95%
Cc1ncsc1-c1ccc(CNC(=O)[C@@H]2C[C@@H](O)CN2C(=O)[C@@H](NC(=O)C2(F)CC2)C(C)(C)C)c(OCCOCCOCCN2CCN(c3cc(-c4ccccc4O)nnc3N)CC2)c1  cooperativity factor alpha (SMARCA2 bromodomain, human; ternary complex binding, TR-FRET competition; with: VCB R69A mutant): 2.6
Cc1cccc(N2CC(C(=O)O)CC2=O)c1 (stereo not drawn)  fold enrichment (Leucine-rich repeat serine/threonine-protein kinase 2, WD40 domain (LRRK2, Homo sapiens, UniProt Q5S007); binding, affinity selection mass spectrometry; reference: other proteins in batch): 1.24
O=C(O)c1ccc(O)cc1  current density (BEST1; whole-cell patch clamp; HEK293 transiently expressing channel; concentration not given, membrane potential 80 mV): 36.1 pA/pF and 29.9 pA/pF and 31.2 pA/pF and 52.2 pA/pF and 81.5 pA/pF and 30 pA/pF and 44.2 pA/pF
Cc1nc(CNC(=O)N2CCSSCC2)cs1  labelling (UCHL1; covalent, intact protein LC-MS; 12.5 µM): 12.6%
NCCS(=O)(=O)O  normalised MST signal (SLC6A6 (Homo sapiens, UniProt P31641, Y138A); binding, microscale thermophoresis; 250 µM, room temperature, with: 50 nM labelled protein; higher = more binding): -0.0167
Cl.O=C(CCl)NCc1ccccc1CN1CCOCC1  labelling (UCHL1; covalent, intact protein LC-MS; 12.5 µM): 17.4%
CN1CCN(c2cc(-c3ccncc3)c(-c3ccc4ccccc4c3)nn2)CC1  activation (F2RL3 (Homo sapiens, UniProt Q96RI0); agonist, FLIPR; 12.5 µM): -7.8%
O=C1NC(=O)C(c2ccccc2)(c2ccccc2)N1  inhibition (Voltage-dependent P/Q-type calcium channel subunit alpha-1A; antagonist; HEK293; 3 µM): 18%
O=C(NN(c1ccccc1)c1ccccc1)c1ccc([N+](=O)[O-])o1  inhibition (Trypanosoma cruzi; reporter translation, Renilla luciferase mRNA translation; cell-free extract; 40 µM; reference: DMSO): 0.28%
O=C(O)c1ccc([N+](=O)[O-])cc1  current density (BEST1; whole-cell patch clamp; HEK293 transiently expressing channel; concentration not given, membrane potential 20 mV): 9.38 pA/pF and 27.4 pA/pF and 21.8 pA/pF and 18.1 pA/pF and 19 pA/pF and 9.18 pA/pF and 16.9 pA/pF
Nc1ncnc2c1ncn2[C@@H]1O[C@H](CO[P@](=O)(O)O[P@](=O)(O)O[P@@](=O)(O)S)[C@@H](O)[C@H]1O  ΔH (GUK1 (Homo sapiens, UniProt Q16774, S18A); binding, ITC): -6.4 ± 0.29 kcal/mol
O=C(CCCn1cnc([N+](=O)[O-])n1)Nc1ccc(F)c(Cl)c1  inhibition (Trypanosoma cruzi; reporter translation, Renilla luciferase mRNA translation; cell-free extract; 40 µM; reference: DMSO): -3.3%

Excerpt of the above:
Nc1ncnc2c1ncn2[C@@H]1O[C@H](CO[P@](=O)(O)O[P@](=O)(O)O[P@@](=O)(O)S)[C@@H](O)[C@H]1O  ΔH (GUK1 (Homo sapiens, UniProt Q16774, S18A); binding, ITC): -6.4 ± 0.29 kcal/mol
O=C(CCCn1cnc([N+](=O)[O-])n1)Nc1ccc(F)c(Cl)c1  inhibition (Trypanosoma cruzi; reporter translation, Renilla luciferase mRNA translation; cell-free extract; 40 µM; reference: DMSO): -3.3%
O=C(CCn1c(=O)[nH]c(=O)c2ccccc21)NCCNC(=O)c1cnc2ccccc2c1  ligand efficiency (TNKS (Homo sapiens, UniProt O95271); enzyme activity, inhibitor): 0.48
O=S(=O)(Nc1cc(-c2ncn[nH]2)ccc1F)c1cc(Cl)cc(Cl)c1O  remaining activity (malate dehydrogenase; enzyme activity, inhibitor; 40 µM, pH 7.0, 1% DMSO, aggregation counter-screen): 101%
Cc1cc(Oc2ncccc2CN2CCN(c3ccccc3[N+](=O)[O-])CC2)ccc1-c1c(C)c(=O)[nH]c(=O)n1C  selectivity ratio (ADRA2C (Homo sapiens, UniProt P18825); binding, radioligand binding; with: [3H]rauwolscine; reference: Ki alpha2A over Ki alpha2C): 6
